# Assay results pooled from the literature.
# Lines come from different studies, so protocols differ. ± gives the spread as reported.
Structure (SMILES),species,sample,route,dose,baseline,oral bioavailability [%]
CN(C)C(=O)c1cc2cnc(Nc3ccc(-c4ccc5c(=O)cc(N6CCOCC6)oc5c4)cc3)nc2n1C1CCCC1.Cl,Balb/c mouse,,oral,20 mg/kg,intravenous 2 mg/kg,28.9 ± 7.9
COc1ccc(NC(=O)N2CCCCN3[C@H](CO)[C@H](c4ccc(C#Cc5ccccc5)cc4)[C@@H]3C2)cc1,CD-1 mouse,,oral,dose not given,,86
COc1ccc(C(O)COc2ccc(-c3csc(-c4ccc(OCC(O)c5ccc(OC)c(OC)c5)cc4)n3)cc2)cc1OC (stereo not drawn),C57BL/6J mouse,plasma,oral,10 mg/kg,,63.8
COc1cc2c3c(n(CCCNCCO)c(=O)c2cc1OC)-c1nc2c(cc1C3=O)OCO2,male CD1 mouse,,oral,10 mg/kg,1 mg/kg intravenous,1.19
CC(=O)N(C)C1CCN(c2cc(F)cc(NC(=O)c3cc4c(F)ccc(C)c4[nH]3)c2)C1 (stereo not drawn),CD1 mouse,,oral,50 mg/kg,,0.425
CO[C@H]1/C=C/O[C@@]2(C)Oc3c(C)c(O)c4c(c3C2=O)C2=NC3(CCN(CC(C)C)CC3)NC2=C(NC(=O)/C(C)=C\C=C\[C@H](C)[C@H](O)[C@@H](C)[C@@H](O)[C@@H](C)[C@H](OC(C)=O)[C@@H]1C)C4=O,CD-1 mouse female,,oral,10 mg/kg,,69
O=C(NO)c1ccc(CN(c2cnccn2)c2cnccn2)cc1,mouse,,,,,15
C[C@@H]1CN(Cc2ncccn2)C[C@H]1c1nc2c(cnn2C2CCOCC2)c(=O)[nH]1,mouse,,oral,1 mg/kg,,67
O=[N+]([O-])c1ccc(-c2ccc(O)cc2)c2cccnc12,male ICR mouse,,oral,5 mg/kg,intravenous 1 mg/kg,4.75
COc1ccc(NC(=O)N2CCCCN3[C@H](CN(C)S(C)(=O)=O)[C@H](c4ccc(C#Cc5ccccc5)cc4)[C@@H]3C2)cc1,CD-1 mouse,,oral,dose not given,,78
COc1cc2c3c(n(CCCNC(C)C)c(=O)c2cc1OC)-c1nc2c(cc1C3=O)OCO2,male CD1 mouse,,oral,10 mg/kg,1 mg/kg intravenous,41.9
O=c1c2cc(Cl)c(CO)cc2[nH]c(=S)n1Cc1cccnc1,mouse,,oral,10 mg/kg,,1.3

# Excerpt of the above:
Structure (SMILES),species,sample,route,dose,baseline,oral bioavailability [%]
COc1ccc(NC(=O)N2CCCCN3[C@H](CN(C)S(C)(=O)=O)[C@H](c4ccc(C#Cc5ccccc5)cc4)[C@@H]3C2)cc1,CD-1 mouse,,oral,dose not given,,78
COc1cc2c3c(n(CCCNC(C)C)c(=O)c2cc1OC)-c1nc2c(cc1C3=O)OCO2,male CD1 mouse,,oral,10 mg/kg,1 mg/kg intravenous,41.9
